Measurements collected from several papers.
Protocols differ between the studies behind these lines. ± marks the error that the study gave.

SMILES	test	system	conditions	Cmax
CC[C@H](C)CCCCC(=O)N[C@@H](CCN)C(=O)N[C@H](C(=O)N[C@@H](CCN)C(=O)N[C@H]1CCNC(=O)[C@H]([C@@H](C)O)NC(=O)[C@H](CCN)NC(=O)[C@H](CCN)NC(=O)[C@H](CC(C)C)NC(=O)[C@@H](Cc2ccccc2)NC(=O)[C@H](CCN)NC1=O)[C@@H](C)O	UPLC-MS/MS	intensive care patients AKI, plasma	iv, dose not given, end of infusion, steady state, polymyxin B dosing	6900 ± 1900 ng/mL
COc1cc(OC)c(/C=C/S(=O)(=O)Cc2ccc(OC)c(NCC(=O)O)c2)c(OC)c1	–	cancer patients, phase I, plasma	oral, 70 mg twice daily, day 1 cycle 1	400 ± 290 ng/mL
C[C@]12C=CC(=O)C=C1CC[C@@H]1[C@@H]2[C@@H](O)C[C@@]2(C)[C@H]1C[C@H]1O[C@@H](C3CCCCC3)O[C@]12C(=O)CO	–	children with asthma, serum	inhaled, 80 µg ciclesonide, day 7, geometric LS mean, dose-normalised, spacer	0.201 ng/mL
CC(C)=CCC[C@](C)(O[C@@H]1O[C@H](CO)[C@@H](O)[C@H](O)[C@H]1O)[C@H]1CC[C@]2(C)[C@@H]1[C@H](O)C[C@@H]1[C@@]3(C)CC[C@H](O[C@@H]4O[C@H](CO)[C@@H](O)[C@H](O)[C@H]4O)C(C)(C)[C@@H]3CC[C@]12C	LC-MS/MS	healthy male volunteers, serum	oral, 3 g red ginseng	0.57 ± 0.22 ng/mL
CN1CCN(c2ccc3nc(-c4c(N)c5c(F)cccc5[nH]c4=O)[nH]c3c2)CC1	–	patients, plasma	oral, 300 mg, day 1, minimum concurrent dosing, together with: gemcitabine and capecitabine	99.4 ng/mL
C[C@H]1CN(C(=O)CC#N)[C@]12CCN(c1ncnc3[nH]ccc13)C2	–	atopic dermatitis patients, plasma	topical, 5 g of 3% ointment twice daily, day 1	3.75 ± 1.78 ng/mL
CC(C)(Sc1ccncc1-c1ccc(C#N)c2ccccc12)C(=O)O	–	non-Asian male subjects, plasma	oral, 10 mg, multiple doses, fed, geometric least squares mean	18 ng/mL
CC(C)(Sc1ccncc1-c1ccc(C#N)c2ccccc12)C(=O)O	–	healthy men, plasma	oral, 2.5 mg once daily, day 14, geometric mean, together with: febuxostat 80 mg	4.78 ng/mL
C[C@@H](N)c1cc(Cl)ccc1Cn1c(=S)[nH]c(=O)c2[nH]ccc21	–	healthy Chinese volunteers, plasma	oral, 5 mg once daily, day 1, multiple dose, geometric mean	21.8 nM
CC(C)(Sc1ccncc1-c1ccc(C#N)c2ccccc12)C(=O)O	–	male, plasma	oral, 15 mg, severe renal impairment, fasted	38.2 ng/mL
O=C1Nc2c(C(=O)O)ccnc2N(C2CC2)c2ncccc21	–	olive baboon (Papio anubis), non-pregnant, serum	oral, 800 mg nevirapine, tablet	321 ± 263 ng/mL
CCOc1ccc(Cc2cc([C@@H]3S[C@H](CO)[C@@H](O)[C@H](O)[C@H]3O)c(OC)cc2C)cc1	–	Japanese type 2 diabetes patients, plasma	oral, 5 mg single dose, eGFR 60-89 mL/min/1.73 m^2	244 ± 53.4 ng/mL
CS(=O)(=O)n1cc2c(n1)CN([C@H]1CO[C@H](c3cc(F)ccc3F)[C@@H](N)C1)C2	–	healthy Japanese men, plasma	oral, 10 mg once weekly, day 1	237 nM
Cc1ccc(NC(=O)c2ccc(CN3CCN(C)CC3)cc2)cc1Nc1nccc(-c2cncc(-c3oncc3C)c2)n1	–	healthy volunteers, plasma	oral, 200 mg once daily, day 1, 7-day dosing, mean	6490 ng/mL
CC(C)=CCC[C@](C)(O[C@@H]1O[C@H](CO)[C@@H](O)[C@H](O)[C@H]1O)[C@H]1CC[C@]2(C)[C@@H]1[C@H](O)C[C@@H]1[C@@]3(C)CC[C@H](O[C@@H]4O[C@H](CO)[C@@H](O)[C@H](O)[C@H]4O[C@@H]4O[C@H](CO)[C@@H](O)[C@H](O)[C@H]4O)C(C)(C)[C@@H]3CC[C@]12C	LC-MS/MS	healthy female volunteers, serum	oral, 3 g fermented red ginseng	14.5 ± 8.18 ng/mL
N[C@@H](CC(=O)N1CCn2c(nnc2C(F)(F)F)C1)Cc1cc(F)c(F)cc1F	–	healthy Korean subjects, plasma	oral, 100 mg single dose, ABCB1 G2677T/A AA	585 ng/mL
CO/N=C1\C[C@]2(C[C@@H]3C[C@@H](C/C=C(\C)C[C@@H](C)/C=C/C=C4\CO[C@@H]5[C@H](O)C(C)=C[C@@H](C(=O)O3)[C@]45O)O2)O[C@H](/C(C)=C/C(C)C)[C@H]1C	–	parasitized Corriedale lambs, plasma	subcutaneous, 0.2 mg/kg, together with: closantel 5 mg/kg subcutaneous	33.2 ± 16.9 ng/mL
CC(C(=O)O)c1ccc(-c2ccccc2)c(F)c1 (stereo not drawn)	–	healthy volunteers, plasma	oral, 100 mg, arithmetic mean, together with: control beverage 250 mL	9800 ± 4300 ng/mL
CON(C)C(=O)N1N=C(c2cc(F)ccc2F)S[C@@]1(CCCN)c1ccccc1	–	patients, plasma	intravenous, dose not given, single doses, range of cohorts	31.1 to 132 ng/mL
C[C@@H](O)[C@H]1C(=O)N2C(C(=O)O)=C(S[C@@H]3CN[C@H](C(=O)N(C)C)C3)[C@H](C)[C@H]12	microdialysis	pig (Danish Landrace), cortical bone	iv infusion, 1000 mg over 10 min, together with: vancomycin co-administered	3000 ng/mL
NC(=O)c1cnc2[nH]ccc2c1N[C@@H]1[C@@H]2CC3C[C@H]1C[C@@](O)(C3)C2	–	healthy Japanese men, plasma	oral, 20 mg, single dose fasted	76.9 ng/mL
CC(=O)Nc1ccc(O[C@@H]2O[C@H](C(=O)O)[C@@H](O)[C@H](O)[C@H]2O)cc1	–	healthy volunteers, both sexes, plasma	oral, 650 mg acetaminophen, day 6, together with: favipiravir 800 mg, extended	16900 ng/mL
Cc1ccc(Sc2ccccc2N2CCNCC2)c(C)c1	–	healthy men, plasma	oral, 5 mg once daily, fed, day 12	8 ng/mL

SMILES	test	system	conditions	Cmax
CCC1=C(C)CN(C(=O)NCCc2ccc(S(=O)(=O)NC(=O)N[C@H]3CC[C@H](C)CC3)cc2)C1=O	–	healthy Korean male volunteers, plasma	oral, 4 mg single dose, mean	227 ng/mL
N[C@]1(C(=O)O)[C@H]2[C@@H](C[C@@H]1F)[C@@H]2C(=O)O	–	healthy subjects, both sexes, plasma	oral, 10 mg TS-134 single dose, fed, mean	34 ng/mL
CCCC[C@H](NC(C)=O)C(=O)N[C@H]1CCC(=O)NC[C@@H](C(=O)N[C@@H](Cc2c[nH]c3ccccc23)C(N)=O)NC(=O)[C@H](CCCNC(=N)N)NC(=O)[C@@H](Cc2ccccc2)NC(=O)[C@H](Cc2c[nH]cn2)NC1=O	–	healthy volunteers, plasma	subcutaneous, 1.0 mg once daily, day 7, steady state median	22.2 ng/mL
Nc1nc(NC2CC2)c2ncn([C@H]3C=C[C@@H](CO)C3)c2n1	–	HIV-infected children and adolescents, plasma	oral, 8 mg/kg	3500 ng/mL
Nc1ncc(-c2cnn(CCO)c2)c2scc(-c3ccc(NC(=O)Nc4cccc(F)c4)cc3)c12	–	patient, plasma	oral, 480 mg twice weekly, day 15, trial	780 ± 550 ng/mL
CN[C@H](CC(C)C)C(=O)N[C@H]1C(=O)N[C@@H](CC(N)=O)C(=O)N[C@H]2C(=O)N[C@H]3C(=O)N[C@H](C(=O)N[C@H](C(=O)O)c4cc(O)cc(O)c4-c4cc3ccc4O)[C@H](O)c3ccc(c(Cl)c3)Oc3cc2cc(c3O[C@@H]2O[C@H](CO)[C@@H](O)[C@H](O)[C@H]2O[C@H]2C[C@](C)(N)[C@H](O)[C@H](C)O2)Oc2ccc(cc2Cl)[C@H]1O	microdialysis	pig (Danish Landrace), subcutaneous adipose tissue	iv infusion, 1000 mg over 100 min, together with: meropenem co-administered	22000 ng/mL
O=C(Nc1nc2cccc(-c3ccc(CN4CCS(=O)(=O)CC4)cc3)n2n1)C1CC1	–	healthy subjects, plasma	oral, 100 mg single dose, 1 h after itraconazole, fasting, mean, together with: itraconazole 200 mg	1170 ng/mL
C#C[C@]1(O)CC[C@H]2[C@@H]3CCC4=CC(=O)CC[C@@H]4[C@H]3CC[C@@]21C	–	healthy women, plasma	oral, 1 mg single dose, day 1, together with: ethinyl estradiol 35 µg	8.3 ng/mL
COc1cc2c3c(n(CCCN4CCOCC4)c(=O)c2cc1OC)-c1cc2c(cc1C3=O)OCO2	–	patients, plasma	intravenous infusion, 40 mg/m^2 daily over 1 h, cycle 1 day 5	1130 ng/mL
CC(C)C(=O)OCC(=O)[C@@]12O[C@H](C3CCCCC3)O[C@@H]1C[C@H]1[C@@H]3CCC4=CC(=O)C=C[C@]4(C)[C@H]3[C@@H](O)C[C@@]12C	–	children with asthma, serum	inhalation with spacer, 160 µg, day 7, steady state	0.192 ± 0.022 ng/mL
CNC(=O)c1cc(Oc2ccc(NC(=O)Nc3ccc(Cl)c(C(F)(F)F)c3)c(F)c2)ccn1	–	metastatic colorectal cancer patients, plasma	oral, dose not given, together with: esomeprazole 40 mg concomitant	4400 ng/mL
O=C(CCCCCCC(=O)Nc1ccccc1)NO	–	cancer patients, serum	oral, 600 mg, cycle 1 day 2, together with: flavopiridol 30 to 30 mg/m^2	1160 nM
NCCCC[C@H](N[C@@H](CCc1ccccc1)C(=O)O)C(=O)N1CCC[C@H]1C(=O)O	–	healthy volunteers, plasma	oral, 10 mg, geometric mean, together with: 200 mL green tea extract solution	12.2 ng/mL
COc1c(OCCCN2CCOCC2)ccc2c1N=C(NC(=O)c1cnc(N)nc1)N1CCN=C21	LC-MS/MS	patients with solid tumours, expansion cohort, plasma	intravenous, 0.8 mg/kg, cycle 1 day 1, geometric mean	537 ng/mL
CCOc1ccc2cc(-c3nn(CC4CCN(C)CC4)c4ncnc(N)c34)ccc2c1	LC-MS/MS	Neospora caninum-infected pregnant sheep, plasma	oral, 100 mg/kg, after dose 3	2400 ± 1200 nM
Cc1ccccc1-c1cc(N2CCN(C)CC2)ncc1N(C)C(=O)C(C)(C)c1cc(C(F)(F)F)cc(C(F)(F)F)c1	–	healthy volunteers, plasma	oral, 300 mg single dose, mean, together with: palonosetron 0.50 mg fixed combination	534 ng/mL
COc1cccc(N2CCN(C3=Nc4c(F)cccc4[C@H](CC(=O)O)N3c3cc(C(F)(F)F)ccc3OC)CC2)c1	–	healthy women, plasma	intravenous infusion, 240 mg, day 1, single dose, 30-min infusion	14700 ± 1210 ng/mL
COc1ccc2c3c1O[C@H]1C[C@@H](OC(=O)c4ccccc4)C=C[C@@]31CCN(C)C2	–	healthy elderly men, plasma	intranasal, 33 mg, single dose	58.5 ng/mL
O=C1CCc2ccc(OCCCCN3CCN(c4cccc(Cl)c4Cl)CC3)cc2N1	–	healthy Japanese men, CYP2D6 IM, plasma	oral, 3 mg aripiprazole single, together with: fluvoxamine 100 mg/day	19.3 ± 3.9 ng/mL
Cc1cc(Nc2cc3ncccc3c(N[C@@H]3C[C@H]4CC[C@@H](C3)N4CCC#N)n2)n[nH]1	–	pregnant rabbit, maternal plasma	oral, 30 mg/kg/day, gestation day 19	311 ng/mL
Cc1ccnc2c1NC(=O)c1cccnc1N2C1CC1	–	olive baboon (Papio anubis), female, non-pregnant, serum	oral, 400 mg, tablet, single dose	328 ng/mL
CC1Cc2ccccc2N1NC(=O)c1ccc(Cl)c(S(N)(=O)=O)c1 (stereo not drawn)	–	healthy Chinese volunteers, plasma	oral, 1.25 mg, fasting, together with: perindopril tert-butylamine 4 mg	19.1 ± 5 ng/mL

For quick reference, copied from above:
SMILES	test	system	conditions	Cmax
CCOc1ccc(Cc2cc([C@@H]3S[C@H](CO)[C@@H](O)[C@H](O)[C@H]3O)c(OC)cc2C)cc1	–	Japanese type 2 diabetes patients, plasma	oral, 5 mg single dose, eGFR 60-89 mL/min/1.73 m^2	244 ± 53.4 ng/mL
COc1ccc2c3c1O[C@H]1C[C@@H](OC(=O)c4ccccc4)C=C[C@@]31CCN(C)C2	–	healthy elderly men, plasma	intranasal, 33 mg, single dose	58.5 ng/mL
CCOc1ccc2cc(-c3nn(CC4CCN(C)CC4)c4ncnc(N)c34)ccc2c1	LC-MS/MS	Neospora caninum-infected pregnant sheep, plasma	oral, 100 mg/kg, after dose 3	2400 ± 1200 nM
O=C(Nc1nc2cccc(-c3ccc(CN4CCS(=O)(=O)CC4)cc3)n2n1)C1CC1	–	healthy subjects, plasma	oral, 100 mg single dose, 1 h after itraconazole, fasting, mean, together with: itraconazole 200 mg	1170 ng/mL
C[C@@H](N)c1cc(Cl)ccc1Cn1c(=S)[nH]c(=O)c2[nH]ccc21	–	healthy Chinese volunteers, plasma	oral, 5 mg once daily, day 1, multiple dose, geometric mean	21.8 nM
CN1CCN(c2ccc3nc(-c4c(N)c5c(F)cccc5[nH]c4=O)[nH]c3c2)CC1	–	patients, plasma	oral, 300 mg, day 1, minimum concurrent dosing, together with: gemcitabine and capecitabine	99.4 ng/mL
